Measurements from different studies.
A part holds a random share of what one study measured.

Block 1
Target: Sal-like protein 4, full length isoform A (SALL4, Homo sapiens, UniProt Q9UJQ4, residues 1-1053)
Chain of UniProt Q9UJQ4 (whole entry, looked up): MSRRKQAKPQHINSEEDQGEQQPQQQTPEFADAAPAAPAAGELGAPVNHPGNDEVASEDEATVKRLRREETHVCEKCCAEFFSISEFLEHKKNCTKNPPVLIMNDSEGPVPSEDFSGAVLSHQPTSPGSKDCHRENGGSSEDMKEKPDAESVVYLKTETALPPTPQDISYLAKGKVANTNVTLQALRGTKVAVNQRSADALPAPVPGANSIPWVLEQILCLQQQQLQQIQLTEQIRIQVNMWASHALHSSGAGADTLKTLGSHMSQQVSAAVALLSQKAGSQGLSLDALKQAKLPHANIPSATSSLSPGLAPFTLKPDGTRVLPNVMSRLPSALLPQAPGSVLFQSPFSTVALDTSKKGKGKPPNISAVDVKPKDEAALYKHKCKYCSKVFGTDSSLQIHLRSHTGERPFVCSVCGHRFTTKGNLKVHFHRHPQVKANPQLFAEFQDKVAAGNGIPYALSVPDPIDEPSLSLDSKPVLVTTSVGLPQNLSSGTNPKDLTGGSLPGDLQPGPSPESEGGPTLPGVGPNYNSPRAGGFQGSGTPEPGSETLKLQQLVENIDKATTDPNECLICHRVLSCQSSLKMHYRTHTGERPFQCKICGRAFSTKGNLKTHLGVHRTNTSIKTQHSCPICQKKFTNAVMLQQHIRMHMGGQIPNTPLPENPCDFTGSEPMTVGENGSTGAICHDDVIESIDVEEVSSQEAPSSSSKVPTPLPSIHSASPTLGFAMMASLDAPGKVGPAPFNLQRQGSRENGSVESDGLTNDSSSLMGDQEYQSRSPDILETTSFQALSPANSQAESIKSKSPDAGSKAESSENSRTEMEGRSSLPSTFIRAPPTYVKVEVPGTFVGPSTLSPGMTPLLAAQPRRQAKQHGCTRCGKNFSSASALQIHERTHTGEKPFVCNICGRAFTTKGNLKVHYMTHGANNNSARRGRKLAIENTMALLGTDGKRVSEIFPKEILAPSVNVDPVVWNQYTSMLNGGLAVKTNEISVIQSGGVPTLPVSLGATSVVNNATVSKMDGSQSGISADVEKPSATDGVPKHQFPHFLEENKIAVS
Method: universal PBM
Form: double-stranded DNA, one strand shown
Medium: in vitro
Concentration: 600 nM
Setting: 8-mer, flanks averaged, mean of replicates
Direction: higher = stronger binding
| Sequence | E-score |
| --- | --- |
| GACGTTCC | -0.12 |
| CCTATCCG | -0.246 |
| ACGAGGAC | -0.183 |
| ACACGTCG | -0.225 |
| ACACGTTA | 0.133 |
| AGATGAGG | -0.182 |
| CGCTCCTC | -0.34 |
| TAACCGAA | 0.0644 |

Block 2
Target: Cyclic AMP-dependent transcription factor ATF-1 (ATF1, Homo sapiens, UniProt P18846, residues 1-271, full length assumed)
Method: protein-binding microarray
Form: double-stranded DNA, one strand shown
Medium: in vitro
Concentration: not given
Setting: k-mer, scored over probes, only values ≥0.25
Direction: higher = stronger binding
Residues (chain): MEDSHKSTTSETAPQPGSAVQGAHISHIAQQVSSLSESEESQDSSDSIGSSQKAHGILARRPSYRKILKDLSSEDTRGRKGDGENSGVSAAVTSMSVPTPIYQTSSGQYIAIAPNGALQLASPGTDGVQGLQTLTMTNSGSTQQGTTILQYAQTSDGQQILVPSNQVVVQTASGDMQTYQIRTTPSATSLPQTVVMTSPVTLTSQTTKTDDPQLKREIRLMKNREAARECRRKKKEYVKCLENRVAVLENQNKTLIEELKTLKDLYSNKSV
| Sequence | E-score |
| --- | --- |
| ACGTGAT | 0.361 |
| AATTACG | 0.295 |
| ACATGAC | 0.365 |
| ACAACGT | 0.275 |
| CGATTAC | 0.321 |
| ACGCATG | 0.287 |
| ACGTAAA | 0.381 |
| GACGACA | 0.326 |

Block 3
Target: Hepatocyte nuclear factor 3-alpha (Foxa1, Mus musculus, UniProt P35582, residues 1-468, full length assumed)
Method: EMSA with sequencing
Form: double-stranded DNA, one strand shown
Medium: in vitro
Concentration: 10 and 20 nM
Setting: whole designed probe, mean of two concentrations, ends assumed
Reference: negative control set to 0
Direction: higher = stronger binding
Constant ends, left off below: GTGAGCGGTGCCCATTGATGGGGAAC … TTTCACTGGGATCGTGGGGAC
Target sequence (chain): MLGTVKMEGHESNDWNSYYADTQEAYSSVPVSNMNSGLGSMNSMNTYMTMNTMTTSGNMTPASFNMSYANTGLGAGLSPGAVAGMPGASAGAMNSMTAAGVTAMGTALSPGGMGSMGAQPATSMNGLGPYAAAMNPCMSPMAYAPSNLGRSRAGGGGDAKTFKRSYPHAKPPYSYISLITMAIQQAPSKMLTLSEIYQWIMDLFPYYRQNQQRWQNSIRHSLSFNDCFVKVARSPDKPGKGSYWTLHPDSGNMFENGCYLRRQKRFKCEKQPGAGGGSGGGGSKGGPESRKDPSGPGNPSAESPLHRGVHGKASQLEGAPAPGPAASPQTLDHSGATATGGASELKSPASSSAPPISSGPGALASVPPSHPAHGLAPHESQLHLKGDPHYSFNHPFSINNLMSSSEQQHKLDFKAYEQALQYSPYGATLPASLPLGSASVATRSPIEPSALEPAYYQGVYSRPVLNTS
| Sequence | normalised bound fraction [ratio] |
| --- | --- |
| AATCAGTTCAAAATAAAAAATATAAACCATTCAAGGAAACAAACTCTACATCATCCTAGGCCATCGTCAATTAGGGAAAGTCAGTAGGCAGAGTAAACAGGAAAATGTGTGCCTCACAATTTGAGATAATAGGACACTGAAAAATAAACTATAAAATTTGTGGCCGGGTGCAGTGGCTCACACCTGTAATCCC | 0.164 |
| CTCGGAATTTAGATACATTAACCAGCTTTTCAGCAAATGTCACTTACCATAAGTTAGTTATTGTTTGTTTGTTTTTTGGGTATGTCAATTATATGTAATCTTGGGGAAGCATTTCTAATTAATGTATTCATCAAATGTTATTTGTTTTAAAATAATTTTATTGTCCTTCATTACTAGGTTCTAAAATTGATAT | 0.499 |
| GACTCCTACAGTATGTAATTTACATCAATAAAGACGTAAAAATCCTTCCTTTTGTCTAACATCTGTAGGGCTATGACTTACTCTGATGTCCTTGTTTACTCTAGCGTGGAGTCAACGAGCTTATTATTTGATCTAGTCTCCATGATGGCTTGTTTGTTTACAGCTGAGCAAGTTTACATAGGGCAAAATTAAA | 0.478 |
| ATCTTCCCCCTCTTCCTTGCCCCACCAGCTCACCTTCCCGGGTTATTTGCACAAAGGAAAATAAATAAAGCCGGCATTCGTTAACGCAGTTCTGGCGCAAACTGCTGTTTGCTCTGGATGAATCATGGTCCTTTGGCGACGCCAGGCTCCGGGAGAGCAAAGCACCGTGTCAGGGCCATGATCCGGGCTCGCC | 0.377 |
| ATCTTCCCCCTCTTCCTTGCCCCACCAGCTCACCTTCCCGGGTTATTTGCAGATAGGAAAATAAATAAAGCCGGCATTCGTTAACCCTCTTCACGCGCATACTGCTGTTTGCTCTGGATGAATCATGGTCCTTTGGCGACGCCAGGCTCCGGGAGAGCAAAGCACCGTGTCAGGGCCATGATCCGGGGTGGCC | 0.361 |
| ATGTGCTAAAAATACAAGACTTGCTTACGCAGAGAGCCGGGAGCTATGTTCCAGTGAGGGTGGAAACAAAAGCCTCAGTATAAGACTGTCAGGAGATTACACAAGGGTGTGGTTTGCTCATGTGGCAACACGAGGTTGCTGGACTCCACATGCTGAGGCTCAAAGTAGAAATCACTGATCTTATGTCACATAT | 0.0239 |
| ATCTTCCCCCTCTTCCTTGCCCCACCAGCTCACCTTCCCGGGTTATTTGCAGATAGGAAAATAAATAAAGCCGGCATTCGTTAACGCAGTTCACGCGCATACTGCTGTTTGCTCTGGATGAATCATGGTCCTTTGGCGACGCCAGGCTCCGGGAGAGCAAAGCACCGTGTCAGGGCCATGATCCGGGCTCGCC | 0.343 |
| ATGTACTTTGGAAACAACTAACCAGGTGTATGTTTTTCGAAGTGTTAATGATTGCTAGGTTGTGACACTGAAATCAGTAAAACACGAATCAAATATTTACACATACCTTCCATGCAGTGTATTTTCCATCATGGGAAGGTATTGGGCAATGGAAAATTTCTCAAATACTTTTACTGGAAGAGACAAATTAGGC | 0.157 |

Further values, each from its own experiment
| Sequence | target | assay | system | how to read | quantity | value |
| --- | --- | --- | --- | --- | --- | --- |
| FHRKKTDAL | HLA class I histocompatibility antigen, A alpha chain, allele A*80:01 (Homo sapiens, UniProt P04439) | peptide-MHC binding | peptide | direction not given | z-score of log IC50 | 0.38 |

For quick reference, copied from above (block 3):
| Sequence | normalised bound fraction [ratio] |
| --- | --- |
| GACTCCTACAGTATGTAATTTACATCAATAAAGACGTAAAAATCCTTCCTTTTGTCTAACATCTGTAGGGCTATGACTTACTCTGATGTCCTTGTTTACTCTAGCGTGGAGTCAACGAGCTTATTATTTGATCTAGTCTCCATGATGGCTTGTTTGTTTACAGCTGAGCAAGTTTACATAGGGCAAAATTAAA | 0.478 |
| ATCTTCCCCCTCTTCCTTGCCCCACCAGCTCACCTTCCCGGGTTATTTGCACAAAGGAAAATAAATAAAGCCGGCATTCGTTAACGCAGTTCTGGCGCAAACTGCTGTTTGCTCTGGATGAATCATGGTCCTTTGGCGACGCCAGGCTCCGGGAGAGCAAAGCACCGTGTCAGGGCCATGATCCGGGCTCGCC | 0.377 |
| ATCTTCCCCCTCTTCCTTGCCCCACCAGCTCACCTTCCCGGGTTATTTGCAGATAGGAAAATAAATAAAGCCGGCATTCGTTAACCCTCTTCACGCGCATACTGCTGTTTGCTCTGGATGAATCATGGTCCTTTGGCGACGCCAGGCTCCGGGAGAGCAAAGCACCGTGTCAGGGCCATGATCCGGGGTGGCC | 0.361 |
